Experimental data gathered from unrelated publications.
A part holds a random share of what one study measured. Values joined by “and” are separate records of one study, mostly repeats; a detail may differ.
Chain of UniProt P23458 (whole entry, looked up): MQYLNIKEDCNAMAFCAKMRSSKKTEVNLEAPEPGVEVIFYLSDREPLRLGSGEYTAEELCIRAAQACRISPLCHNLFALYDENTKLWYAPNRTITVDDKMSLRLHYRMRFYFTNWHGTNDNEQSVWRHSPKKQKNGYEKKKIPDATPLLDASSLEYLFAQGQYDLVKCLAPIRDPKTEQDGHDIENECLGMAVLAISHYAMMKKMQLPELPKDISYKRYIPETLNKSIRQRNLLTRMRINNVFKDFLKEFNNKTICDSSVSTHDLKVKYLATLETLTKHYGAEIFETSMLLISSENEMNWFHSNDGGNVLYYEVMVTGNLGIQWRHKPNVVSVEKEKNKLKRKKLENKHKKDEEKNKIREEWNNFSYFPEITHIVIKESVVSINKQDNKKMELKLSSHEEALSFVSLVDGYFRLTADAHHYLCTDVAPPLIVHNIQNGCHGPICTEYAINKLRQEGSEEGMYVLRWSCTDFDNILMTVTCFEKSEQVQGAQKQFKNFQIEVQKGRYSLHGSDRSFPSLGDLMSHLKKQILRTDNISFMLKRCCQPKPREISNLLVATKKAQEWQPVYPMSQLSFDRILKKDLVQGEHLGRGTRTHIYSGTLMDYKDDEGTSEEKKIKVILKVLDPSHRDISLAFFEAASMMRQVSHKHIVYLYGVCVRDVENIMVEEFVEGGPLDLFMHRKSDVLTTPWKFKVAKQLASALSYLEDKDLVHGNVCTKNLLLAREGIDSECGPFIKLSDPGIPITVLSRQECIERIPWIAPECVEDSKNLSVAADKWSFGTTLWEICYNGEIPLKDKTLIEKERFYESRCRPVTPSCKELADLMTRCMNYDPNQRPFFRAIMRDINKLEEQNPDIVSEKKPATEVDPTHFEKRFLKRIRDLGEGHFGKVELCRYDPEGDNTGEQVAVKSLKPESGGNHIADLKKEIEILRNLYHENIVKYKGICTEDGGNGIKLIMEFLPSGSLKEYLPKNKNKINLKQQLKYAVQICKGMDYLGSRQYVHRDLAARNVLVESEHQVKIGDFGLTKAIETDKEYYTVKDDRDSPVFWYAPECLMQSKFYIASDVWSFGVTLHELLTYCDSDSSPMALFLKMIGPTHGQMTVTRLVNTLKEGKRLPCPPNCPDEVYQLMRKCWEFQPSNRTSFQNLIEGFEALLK
Chain of UniProt Q16832 (whole entry, looked up): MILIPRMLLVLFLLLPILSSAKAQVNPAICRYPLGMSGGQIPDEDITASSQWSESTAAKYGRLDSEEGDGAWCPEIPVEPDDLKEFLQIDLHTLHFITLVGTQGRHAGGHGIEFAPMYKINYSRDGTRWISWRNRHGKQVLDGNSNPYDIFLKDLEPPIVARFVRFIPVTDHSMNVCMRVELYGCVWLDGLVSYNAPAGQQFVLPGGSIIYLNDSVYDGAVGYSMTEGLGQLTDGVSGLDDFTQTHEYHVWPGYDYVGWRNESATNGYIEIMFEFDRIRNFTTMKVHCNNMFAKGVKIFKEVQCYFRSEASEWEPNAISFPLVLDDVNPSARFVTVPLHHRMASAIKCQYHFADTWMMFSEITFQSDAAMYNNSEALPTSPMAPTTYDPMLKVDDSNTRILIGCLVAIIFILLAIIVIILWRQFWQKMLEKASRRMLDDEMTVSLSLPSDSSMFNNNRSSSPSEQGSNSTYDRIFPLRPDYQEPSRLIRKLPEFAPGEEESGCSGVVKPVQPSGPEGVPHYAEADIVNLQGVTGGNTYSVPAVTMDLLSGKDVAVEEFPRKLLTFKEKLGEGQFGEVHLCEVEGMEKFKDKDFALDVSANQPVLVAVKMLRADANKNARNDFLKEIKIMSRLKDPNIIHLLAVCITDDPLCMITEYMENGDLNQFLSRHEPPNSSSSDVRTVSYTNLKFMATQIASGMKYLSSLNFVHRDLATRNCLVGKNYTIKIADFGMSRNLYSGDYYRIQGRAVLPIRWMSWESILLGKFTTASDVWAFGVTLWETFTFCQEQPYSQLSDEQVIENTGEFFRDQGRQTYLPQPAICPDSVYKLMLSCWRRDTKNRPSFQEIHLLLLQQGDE
Chain of UniProt Q96NX5 (whole entry, looked up): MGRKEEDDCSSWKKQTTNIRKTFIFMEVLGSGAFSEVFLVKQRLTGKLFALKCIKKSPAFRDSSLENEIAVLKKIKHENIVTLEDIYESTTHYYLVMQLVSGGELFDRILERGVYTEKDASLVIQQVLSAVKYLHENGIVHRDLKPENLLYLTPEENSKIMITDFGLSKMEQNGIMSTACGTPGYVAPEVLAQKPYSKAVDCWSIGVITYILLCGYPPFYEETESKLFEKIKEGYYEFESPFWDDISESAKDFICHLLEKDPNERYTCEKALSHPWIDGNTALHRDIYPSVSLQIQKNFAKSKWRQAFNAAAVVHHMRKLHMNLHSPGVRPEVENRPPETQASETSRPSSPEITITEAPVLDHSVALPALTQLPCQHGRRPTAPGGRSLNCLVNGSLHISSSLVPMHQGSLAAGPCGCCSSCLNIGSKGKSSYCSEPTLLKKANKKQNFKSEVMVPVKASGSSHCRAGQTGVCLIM
Chain of UniProt Q8N5S9 (whole entry, looked up): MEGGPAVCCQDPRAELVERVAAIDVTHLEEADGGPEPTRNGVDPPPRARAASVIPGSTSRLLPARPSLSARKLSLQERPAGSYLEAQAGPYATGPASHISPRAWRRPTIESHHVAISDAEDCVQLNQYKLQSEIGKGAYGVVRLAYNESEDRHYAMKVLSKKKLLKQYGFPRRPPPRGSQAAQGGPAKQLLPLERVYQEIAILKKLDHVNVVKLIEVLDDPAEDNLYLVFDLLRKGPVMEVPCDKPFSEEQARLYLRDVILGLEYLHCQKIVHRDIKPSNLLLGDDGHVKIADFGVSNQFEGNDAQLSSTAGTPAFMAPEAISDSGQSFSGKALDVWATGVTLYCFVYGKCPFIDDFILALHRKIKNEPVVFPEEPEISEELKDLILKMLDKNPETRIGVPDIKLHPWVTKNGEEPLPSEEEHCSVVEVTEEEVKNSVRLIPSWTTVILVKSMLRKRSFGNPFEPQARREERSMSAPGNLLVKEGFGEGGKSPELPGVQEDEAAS

Set 1
Cell line: mouse MPNST tumor cells
Method: high-content nuclear imaging
Item: cell number
Tested at: 10 µM
Time: 12 h
Notes: mean of 2 replicates
Reference: plate mean
Reading: higher = more cells
Structure (SMILES) | nuclei count
CNCc1ccc(-c2[nH]c3cc(F)cc4c3c2CCNC4=O)cc1 | 1.91 z-score
CCOc1cc(C(=O)N2CCC(N3CCN(C)CC3)CC2)ccc1Nc1ncc2c(n1)N(C1CCCC1)c1ccccc1C(=O)N2C | -4.86 z-score
COCCN1CCC(C(=O)NO)(S(=O)(=O)c2ccc(Oc3ccc(OC(F)(F)F)cc3)cc2)CC1 | 1.47 z-score
CS(=O)(=O)OCCCCOS(C)(=O)=O | -0.633 z-score and 0.632 z-score

Set 2
Target: Mitogen-activated protein kinase 10 (MAPK10, Homo sapiens, UniProt P53779)
Chain of UniProt P53779 (whole entry, looked up): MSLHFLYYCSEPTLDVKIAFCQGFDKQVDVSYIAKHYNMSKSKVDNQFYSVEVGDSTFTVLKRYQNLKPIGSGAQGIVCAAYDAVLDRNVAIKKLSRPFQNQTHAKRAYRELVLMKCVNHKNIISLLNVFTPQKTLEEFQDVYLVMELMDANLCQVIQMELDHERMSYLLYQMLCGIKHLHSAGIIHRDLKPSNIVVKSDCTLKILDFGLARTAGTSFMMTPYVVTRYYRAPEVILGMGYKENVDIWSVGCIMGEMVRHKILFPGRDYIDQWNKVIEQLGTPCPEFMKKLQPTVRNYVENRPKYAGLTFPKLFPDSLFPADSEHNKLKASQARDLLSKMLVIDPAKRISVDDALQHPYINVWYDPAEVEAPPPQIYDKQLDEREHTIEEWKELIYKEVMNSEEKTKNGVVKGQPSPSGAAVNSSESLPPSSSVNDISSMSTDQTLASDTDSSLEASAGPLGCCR
Read-out: enzyme activity
Mode: inhibitor
Tested at: 0.5 µM
Reference: control
SMILES | remaining activity [%]
O=C(Nc1cccc(Nc2cc(Nc3cccc(C(F)(F)F)c3)ncn2)c1)C1CC1 | 83.4
CNC(=O)c1cc(Oc2ccc(NC(=O)Nc3ccc(Cl)c(C(F)(F)F)c3)cc2)ccn1 | 94.2
Cn1sc(=O)n(Cc2ccccc2)c1=O | 91.1
Cc1nc(-c2ccccc2)c(-c2ccncc2)o1 | 101
Cc1ccc(NC(=O)c2ccc(CN3CCN(C)CC3)cc2)cc1Nc1nc(-c2cccnc2)cs1 | 94.2
C#Cc1cccc(Nc2ncnc3cc(OCCOC)c(OCCOC)cc23)c1 | 99.6
O=C1NC(=O)C(c2cn(CCCO)c3ncccc23)=C1c1cnccn1 | 88
Oc1ccc(-c2nc(-c3ccncc3)c(-c3ccc(F)cc3)[nH]2)cc1 | 117
NCCNc1ncc(C(N)=O)c(Nc2cccc(C(F)(F)F)c2)n1 | 92.2
O=c1c2ccccc2[nH]c(=S)n1CCN1CCC(=C(c2ccc(F)cc2)c2ccc(F)cc2)CC1 | 76.2
COc1cc2nccc(Oc3ccc(NC(=S)NC(=O)c4ccccc4C)cc3)c2cc1OC | 98.7
CCOC(=O)c1c(C)[nH]c(/C=C2\C(=O)Nc3ccccc32)c1C | 86.8
O=C(CCCc1ccc(-c2ccccc2F)cc1)Nc1ccc(O)cc1 | 100

Set 3
Compound: CS(=O)(=O)N1CCCC(NC(=O)[C@H](CCC2CCCCC2)NC(=O)c2ccc(CNc3ncnc4c3nnn4-c3ccccc3)cc2)C1 (stereo partly shown)
Read-out: cell-free assay
Method: competition with immobilised ligand
Tested at: 0.1 µM
target | remaining binding
CAMKK1 (Homo sapiens, UniProt Q8N5S9) | 88%
FLT3 (Homo sapiens, UniProt P36888, D835V) | 89%
DDR2 (Homo sapiens, UniProt Q16832) | 100%
Tyrosine-protein kinase JAK1, JH1 (JAK1, Homo sapiens, UniProt P23458) | 100%
CAMK1G (Homo sapiens, UniProt Q96NX5) | 92%

Set 4
Compound: c1ccc(Oc2ccc(Nc3c4c(nc5ccccc35)CCC4)cc2)cc1
Method: resazurin
cell line | tested at | time | notes | cytotoxicity
HEK293 | 66.66 µM | – | 10% serum | 102% and 100%
J774.1 | 33.32 µM | 64 h | – | 40%
J774.1 | 3.32 µM | – | – | -4% and -5%
RAW264.7 | 33.32 µM | 64 h | – | 39% and 40%
RAW264.7 | 0.166 µM | – | – | -6% and -2%
J774.1 | 0.0332 µM | – | – | -6% and -4%

A few entries again (set 1):
Structure (SMILES) | nuclei count
CS(=O)(=O)OCCCCOS(C)(=O)=O | -0.633 z-score and 0.632 z-score
CCOc1cc(C(=O)N2CCC(N3CCN(C)CC3)CC2)ccc1Nc1ncc2c(n1)N(C1CCCC1)c1ccccc1C(=O)N2C | -4.86 z-score
CNCc1ccc(-c2[nH]c3cc(F)cc4c3c2CCNC4=O)cc1 | 1.91 z-score
